# Published values from different studies.
# Compare with care: the assays were run in different laboratories. ± gives the spread as reported.
Compound,assay,test system,conditions,how to read,measurement,result
CCCC[C@H](NC(=O)CCCCCCCNC(=O)c1ccc(NN)nc1)C(=O)N[C@H]1CC(=O)NCCCC[C@@H](C(N)=O)NC(=O)[C@H](Cc2c[nH]c3ccccc23)NC(=O)[C@H](CCCNC(=N)N)NC(=O)[C@@H](Cc2ccccc2)NC(=O)[C@H](Cc2c[nH]cn2)NC1=O [technetium-99m labelled],,"C57 mouse, B16/F1 melanoma, blood","intravenous, 0.5 h",,uptake,2.98 ± 1.77 %ID/g
CSCC[C@H](NC(=O)[C@H](CC(C)C)NC(=O)[C@H](Cc1c[nH]cn1)NC(=O)CNC(=O)[C@@H](NC(=O)[C@H](C)NC(=O)[C@H](Cc1c[nH]c2ccccc12)NC(=O)[C@H](CCC(N)=O)NC(=O)CCCCCNC(=O)CNC(=O)CNC(=O)CNC(=O)CSC(C)=O)C(C)C)C(N)=O [technetium-99m labelled],,"Swiss mouse, lung","intravenous, 18.5 MBq, 240 min",,tissue uptake,0.13 ± 0.03 %ID/g
N=C(N)NCCC[C@@H]1NC(=O)[C@H](CCCCNC(=O)CCOCCOCCOCCOCCNC(=O)CN2CCN(CC(=O)O)CCN(CC(=O)O)CCN(CC(=O)O)CC2)NC(=O)[C@@H](Cc2ccccc2)NC(=O)[C@H](CC(=O)O)NC(=O)CNC1=O [indium-111 labelled],,"athymic nude mice, female, U-87 MG glioma xenograft, tumour and lungs","intravenous, 72 h",relative to: tumour over lungs,tumour to tissue ratio,4.66 ± 1.02
CC(C)C[C@H](NC(=O)[C@@H]1CCCN1C(=O)[C@H](CCCCN)NC(=O)[C@@H](N)CO)C(=O)N1CCC[C@H]1C(=O)N[C@@H](CCC(=O)O)C(=O)N[C@H](C(=O)N[C@H](C(=O)N[C@@H](CC(=O)O)C(=O)N[C@@H](CCC(=O)O)C(=O)N[C@@H](Cc1ccc(O)cc1)C(=O)N[C@@H](Cc1cn(CCOCCOCCOCCNC(=O)CCc2ccc(O)c(CN(CCN(CC(=O)O)Cc3cc(CCC(=O)NCCCC[C@H](NC(=O)N[C@@H](CCC(=O)O)C(=O)O)C(=O)O)ccc3O)CC(=O)O)c2)nn1)C(=O)O)[C@@H](C)O)C(C)C [gallium-68 labelled],,"NMRI nu/nu mice, LNCaP tumour, adrenals","135.34 nmol/kg, low molar activity",,standardized uptake value,0.24 g/g
CSCC[C@H](NC(=O)[C@H](CC(C)C)NC(=O)[C@H](Cc1c[nH]cn1)NC(=O)CNC(=O)[C@@H](NC(=O)[C@H](C)NC(=O)[C@H](Cc1c[nH]c2ccccc12)NC(=O)[C@H](CCC(N)=O)NC(=O)CCCCCNC(=O)CN1CCN(CC(=O)O)CCN(CC(=O)O)CC1)C(C)C)C(N)=O [gallium-68 labelled],microPET imaging,"mouse PC-3 xenograft, PC-3 tumour","intravenous, 3.7 MBq, 15 min",,maximum tumour uptake,6.68 ± 0.69 %ID/g
CCCC[C@H](NC(=O)CNC(=O)CNC(=O)c1ccc(NN)nc1)C(=O)N[C@H]1CC(=O)NCCCC[C@@H](C(N)=O)NC(=O)[C@H](Cc2c[nH]c3ccccc23)NC(=O)[C@H](CCCNC(=N)N)NC(=O)[C@@H](Cc2ccccc2)NC(=O)[C@H](Cc2c[nH]cn2)NC1=O [technetium-99m labelled],,"C57 mouse, B16/F1 melanoma","2 h, with: L-lysine",relative to: tumour over muscle,uptake ratio,235
N=C(N)NCCC[C@@H]1NC(=O)[C@H](CCCCNC(=O)CC[C@H](NC(=O)CCOCCOCCOCCOCCNC(=O)CC[C@H](NC(=O)CN2CCN(CC(=O)O)CCN(CC(=O)O)CCN(CC(=O)O)CC2)C(=O)NCCOCCOCCOCCOCCC(=O)N[C@@H](CCC(=O)NCCCC[C@@H]2NC(=O)[C@@H](Cc3ccccc3)NC(=O)[C@H](CC(=O)O)NC(=O)CNC(=O)[C@H](CCCNC(=N)N)NC2=O)C(=O)NCCCC[C@@H]2NC(=O)[C@@H](Cc3ccccc3)NC(=O)[C@H](CC(=O)O)NC(=O)CNC(=O)[C@H](CCCNC(=N)N)NC2=O)C(=O)NCCCC[C@@H]2NC(=O)[C@@H](Cc3ccccc3)NC(=O)[C@H](CC(=O)O)NC(=O)CNC(=O)[C@H](CCCNC(=N)N)NC2=O)NC(=O)[C@@H](Cc2ccccc2)NC(=O)[C@H](CC(=O)O)NC(=O)CNC1=O [indium-111 labelled],,"female athymic nude mice, heart","intravenous, 3 µCi, 1 h, U-87 MG glioma xenograft",,tissue uptake,0.86 ± 0.22 %ID/g
CSCC[C@H](NC(=O)[C@H](CC(C)C)NC(=O)[C@H](Cc1c[nH]cn1)NC(=O)CNC(=O)[C@@H](NC(=O)[C@H](C)NC(=O)[C@H](Cc1c[nH]c2ccccc12)NC(=O)[C@H](CCC(N)=O)NC(=O)CCCCNC(=O)CSCCSCCP(CO)CO)C(C)C)C(N)=O [technetium-99m labelled],,"female CF-1 mouse, urine","intravenous, dose not given, 1 h",,urinary excretion,20.3%
N=C(N)NCCC[C@@H]1NC(=O)[C@H](CCCCNC(=O)c2ccc(CNC34CNCCNCC(NCc5ccc(C(=O)NCCCC[C@@H]6NC(=O)[C@@H](Cc7ccc(O)cc7)NC(=O)[C@H](CC(=O)O)NC(=O)CNC(=O)[C@H](CCCNC(=N)N)NC6=O)cc5)(CNCCNC3)CNCCNC4)cc2)NC(=O)[C@@H](Cc2ccc(O)cc2)NC(=O)[C@H](CC(=O)O)NC(=O)CNC1=O [copper-64 labelled],microPET,"female athymic nude mouse, U-87 MG xenograft, U-87 MG tumour","intravenous, 20 h, with: c(RGDyK) 10 mg/kg blocking",,tumour uptake,0.13 ± 0.05 %ID/g
N=C(N)NCCC[C@@H]1NC(=O)[C@H](CCCCNC(=O)CNC(=O)CNC(=O)CNC(=O)CC[C@H](NC(=O)CCOCCOCCOCCOCCNC(=O)CC[C@H](NC(=O)CN2CCN(CC(=O)O)CCN(CC(=O)O)CCN(CC(=O)O)CC2)C(=O)NCCOCCOCCOCCOCCC(=O)N[C@@H](CCC(=O)NCC(=O)NCC(=O)NCC(=O)NCCCC[C@@H]2NC(=O)[C@@H](Cc3ccccc3)NC(=O)[C@H](CC(=O)O)NC(=O)CNC(=O)[C@H](CCCNC(=N)N)NC2=O)C(=O)NCC(=O)NCC(=O)NCC(=O)NCCCC[C@@H]2NC(=O)[C@@H](Cc3ccccc3)NC(=O)[C@H](CC(=O)O)NC(=O)CNC(=O)[C@H](CCCNC(=N)N)NC2=O)C(=O)NCC(=O)NCC(=O)NCC(=O)NCCCC[C@@H]2NC(=O)[C@@H](Cc3ccccc3)NC(=O)[C@H](CC(=O)O)NC(=O)CNC(=O)[C@H](CCCNC(=N)N)NC2=O)NC(=O)[C@@H](Cc2ccccc2)NC(=O)[C@H](CC(=O)O)NC(=O)CNC1=O [indium-111 labelled],,"athymic nude mice, female, U-87 MG glioma xenograft, tumour and lungs","intravenous, 24 h",relative to: tumour over lungs,tumour to tissue ratio,5.59 ± 0.63
Cc1ncsc1-c1ccc(CNC(=O)[C@@H]2C[C@@H](OC(=O)OCCSSCCn3cc(CCCC(=O)N[C@@H](Cc4ccc(O)cc4)C(=O)N[C@@H](CCCNC(=N)N)C(=O)N[C@@H](CCCNC(=N)N)C(=O)N[C@@H](CCCNC(=N)N)C(=O)N[C@@H](CCCNC(=N)N)C(=O)N[C@@H](CCCNC(=N)N)C(=O)N[C@@H](CCCNC(=N)N)C(=O)N[C@@H](CCCNC(=N)N)C(=O)N[C@@H](CCCNC(=N)N)C(=O)N[C@@H](CCCNC(=N)N)C(N)=O)nn3)CN2C(=O)[C@@H](NC(=O)COCCOCCOCCNC(=O)C[C@@H]2N=C(c3ccc(Cl)cc3)c3c(sc(C)c3C)-n3c(C)nnc32)C(C)(C)C)cc1,UHPLC,PBS,"100 nM, 1 h, 37 °C, with: 5 mM glutathione",relative to: total peak area,released payload,100%

# For quick reference, copied from above:
Compound,assay,test system,conditions,how to read,measurement,result
N=C(N)NCCC[C@@H]1NC(=O)[C@H](CCCCNC(=O)CC[C@H](NC(=O)CCOCCOCCOCCOCCNC(=O)CC[C@H](NC(=O)CN2CCN(CC(=O)O)CCN(CC(=O)O)CCN(CC(=O)O)CC2)C(=O)NCCOCCOCCOCCOCCC(=O)N[C@@H](CCC(=O)NCCCC[C@@H]2NC(=O)[C@@H](Cc3ccccc3)NC(=O)[C@H](CC(=O)O)NC(=O)CNC(=O)[C@H](CCCNC(=N)N)NC2=O)C(=O)NCCCC[C@@H]2NC(=O)[C@@H](Cc3ccccc3)NC(=O)[C@H](CC(=O)O)NC(=O)CNC(=O)[C@H](CCCNC(=N)N)NC2=O)C(=O)NCCCC[C@@H]2NC(=O)[C@@H](Cc3ccccc3)NC(=O)[C@H](CC(=O)O)NC(=O)CNC(=O)[C@H](CCCNC(=N)N)NC2=O)NC(=O)[C@@H](Cc2ccccc2)NC(=O)[C@H](CC(=O)O)NC(=O)CNC1=O [indium-111 labelled],,"female athymic nude mice, heart","intravenous, 3 µCi, 1 h, U-87 MG glioma xenograft",,tissue uptake,0.86 ± 0.22 %ID/g
